Published values from different studies.
A part holds a random share of what one study measured.
Sequence of UniProt P62837 (whole entry, looked up): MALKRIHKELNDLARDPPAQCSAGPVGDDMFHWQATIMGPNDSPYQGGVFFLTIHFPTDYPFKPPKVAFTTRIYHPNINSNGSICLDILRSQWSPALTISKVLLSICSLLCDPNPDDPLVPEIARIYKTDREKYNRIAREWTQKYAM

Series 1 — method: universal PBM; form: double-stranded DNA, one strand shown; sample: in vitro; concentration: not given; direction: higher = stronger binding
Target: Sal-like protein 4, full length isoform B (SALL4, Homo sapiens, UniProt Q9UJQ4-2, residues 1-616)
Notes: 8-mer, flanks averaged, mean of replicates
| Strand | E-score |
| --- | --- |
| AGATTAAT | 0.303 |
| AAACTAGA | 0.154 |
| GTCCGACA | -0.144 |
| AGTTCGAC | -0.125 |
| CTTTGCTA | 0.115 |
| AATGCGAT | 0.196 |
| GATGGAGC | -0.167 |
| GTACTCGA | -0.0627 |

Series 2 — method: RNA Bind-n-Seq; form: RNA; sample: in vitro; concentration: not given; baseline: input RNA pool; direction: higher = stronger binding
Target: RING finger protein unkempt homolog, zinc fingers 1-6, GST-SBP tag (UNK, Homo sapiens, UniProt Q9C0B0, residues 30-357)
Notes: RNA with constant flanks, human-mouse chimeric sites, ends assumed
All sequences stand within: GGGAGUUCUACAGUCCGACGAUC … CAACAGAGGAUUGAGCAUCA
Residues (chain): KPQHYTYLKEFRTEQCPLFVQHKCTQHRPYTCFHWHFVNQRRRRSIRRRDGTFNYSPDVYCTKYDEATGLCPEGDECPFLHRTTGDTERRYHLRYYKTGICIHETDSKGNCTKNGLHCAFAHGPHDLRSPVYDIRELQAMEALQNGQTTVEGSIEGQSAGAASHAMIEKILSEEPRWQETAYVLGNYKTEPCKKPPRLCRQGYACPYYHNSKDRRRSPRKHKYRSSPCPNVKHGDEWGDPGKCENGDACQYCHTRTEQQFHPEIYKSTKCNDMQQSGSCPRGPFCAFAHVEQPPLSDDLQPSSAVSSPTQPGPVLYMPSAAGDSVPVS
| Strand | bound/input enrichment [ratio] |
| --- | --- |
| GUAGCUGGGACUACAGAAGAAUGCUGAAUUUCAGUCACUUGCUGAUGACUUCUGAUGACCUAGCAAAUGUUGGCAUUGUUGACUGCUGAGAAGAUACUUCUGAGGACCCACGUCUAAGGU | 0.0735 |
| GUUCGGCUCUGGGAUCAUGCCACAAUGACAGAAGUGAAAUCUCUGAAUUUUAAUAUGUCUGUUAGCAGUAUGGAAUAUAUUCCUGAAGGAGAGAUUUUGGUUAUUACUUAUGGACGAUCU | 1.24 |
| GUGCCCUUCUCGCUGCUGCGGAGCCCGAGCUGGGAACCAUUCCGGGACUGGUACCCUGCACACAGCCGCCUCUUCGACCAGGCCUUCGGGGUGCCCCGGUUGCCCGAUGAGUGGUCGCAG | 0.0634 |
| CAGCCUCAGAGCCCUGACUUCCUGGACAUUACCAACCCUAAAGCGGUAUUAGAAAAUGCAUUGAGAAACUUCGCCUGUCUGACGACUGGAGAUGUGAUUGCUAUCAACUACAAUGAGAAG | 0.509 |
| GAAACUAUUCCUAAAGAGGAGAGAGCUGAAAAGGAAGCUCGGAGAUCGUCUCUCGAGAAACAUAGAAAAGAAAAGCCUUUUAAAACCGGGAGAGGCAGAAUUUCCACUCCUGAAAGAAAA | 0.685 |
| AGAAUCUGUGACUGGCUUUGCUUGAUUGGUCAUUGAUAGCUUAACAAACAUGGAGAUAAGAUUAGAAAUCUUGACAUCAACAGGUAUUAAGCAGAAAAAACCAUGGCCACGUGUCUCCUG | 0.135 |
| UUCAAAGAAAAGGGCAGCUGUGUCAUUUCAUAAGUAACUCUGGGGGAGGGAAAUUCUAACUAGUUUGUUAAUUUUCCCCCAAAUGAAGCCAAAGUGUGUGUUGAAGAAGGAAGAAUGAAU | 0.626 |
| GGUGGGGGGUUGUCAUUCGUUUGAGCUGCUGAUUUUCAUGAGUCGCCUUCAAAACUCUCGUGUAGGGUUGACAAUGUGGGGGGGUGGGGGAUCCAGCUUAUUCUUUUUCCCCAGCCCCCA | 0.749 |

Series 3 — method: protein-binding microarray; form: hairpin DNA; sample: in vitro; concentration: not given; baseline: not given; direction: higher = stronger binding; all sequences stand within: GAGGCCG … CGGCCTCACACTC
Target: Cyclic AMP-dependent transcription factor ATF-1, full length (ATF1, Homo sapiens, UniProt P18846, residues 1-271)
Notes: whole hairpin DNA, median over replicate spots
Construct (chain): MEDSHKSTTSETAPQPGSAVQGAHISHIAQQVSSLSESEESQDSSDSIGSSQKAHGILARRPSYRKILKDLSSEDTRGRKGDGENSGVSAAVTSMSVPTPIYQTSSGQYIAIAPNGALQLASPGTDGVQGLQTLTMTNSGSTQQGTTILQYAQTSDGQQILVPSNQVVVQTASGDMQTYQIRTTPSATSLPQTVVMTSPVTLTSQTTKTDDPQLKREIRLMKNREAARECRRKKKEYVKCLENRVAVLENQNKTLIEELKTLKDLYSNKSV
| Strand | median fluorescence |
| --- | --- |
| GATGACGTCAGCCTCCTGGCTGACGTCATC (5mC at 16) | 9820 a.u. |
| GCTGACGGCAGCCTCCTGGCTGCCGTCAGC (5mC at 30) | 3910 a.u. |
| GATCACGTCAGCCTCCTGGCTGACGTGATC | 4940 a.u. |
| ACGACGTCGGGCCTCCTGGCCCGACGTCGT (5mC at 9 15 28 29 35) | 3820 a.u. |
| GATGACGTTAGCCTCCTGGCTAACGTCATC | 7670 a.u. |
| GATGACGCGAGCCTCCTGGCTCGCGTCATC (5mC at 29) | 6290 a.u. |
| GGTGACGTCAGCCTCCTGGCTGACGTCACC | 19000 a.u. |
| GATGAGGTCAGCCTCCTGGCTGACCTCATC (5mC at 32) | 3250 a.u. |

Single results of other studies
| Sequence | target | assay | test system | setting | how to read | endpoint | result |
| --- | --- | --- | --- | --- | --- | --- | --- |
| AVPSGLEENLCKICMDSPIDCVLLECGHMVTCTKCGKRMNECPICRQYVIRAVHVF (RFFL RING domain (UniProt Q8WZ73)) | UBE2D2 UBC core domain (UniProt P62837) | yeast two-hybrid | yeast | mostly zero background | baseline: not given, higher = stronger interaction | lacZ reporter activity | 0 |

A few entries again (series 3):
| Strand | median fluorescence |
| --- | --- |
| GATGACGTTAGCCTCCTGGCTAACGTCATC | 7670 a.u. |
| GATGACGCGAGCCTCCTGGCTCGCGTCATC (5mC at 29) | 6290 a.u. |
